Measurements from different studies.
Each line is one published result; not all experiments were run side by side. ± gives the spread as reported.

With `Cc1ccc(OCCc2cccc(F)c2)c(C(N)=O)c1` the solubility was 50 µM (PBS; 30 (unit not given), pH 7.4).
With `CN(C)S(=O)(=O)NCC1CCOC2(CCN(C(=O)C3(c4ccccn4)CCCC3)CC2)C1` (centres unmarked) the solubility was 170 µM (pH 7.4).
`CC[C@@H]1NC(=O)[C@H](CC(C)C)NC(=O)[C@H](CC(C)C)NC(=O)CNC(=O)[C@@H](Cc2ccc(O)cc2)NC(=O)[C@H]2CCCN2C(=O)[C@H](CCCNC(=N)N)NC(=O)[C@H](C(C)C)NC(=O)[C@H](CC(C)C)NC(=O)[C@H]([C@@H](C)CC)NC1=O` has a solubility of 692 µM (HBSS; pH 7.4).
The solubility of `C#Cc1ccc2c(c1)C(c1ccccn1)=NCc1c(-c3cnco3)ncn1-2` is reported as 4130 µg/mL (thermodynamic equilibrium, UV; tetrahydrofuran; 24 h, 25 °C).
`CC(C)N(Cc1ccccc1)C(=O)C(C)(C)C` has a solubility of 324 µM (PBS; 2 h, pH 7.4, 25 °C).
With `CCOC(=O)N1C[C@@H](C2CCCC2)N[C@@H](c2cccnc2)C1` the solubility was greater than 750 µM (shake-flask, LC-HRMS; aqueous buffer; 16 h, pH 6.8).
For `CNC(=O)[C@@H](NC(=O)c1cc(OCC2(C)COC2)c(C2CC2)cn1)C(C)(C)C`, the solubility was 174 ± 47 µg/mL (LYSA).
For `Cc1ccc(C2(C(=O)N3CCC4(CC3)CC(CNS(C)(=O)=O)CCO4)CCCC2)cc1` (centres unmarked), the solubility was 160 µM (pH 7.4).
For `NC(=O)c1cccc2c1O/C(=C\c1ccc(C(=O)NCCc3nc4ccccc4[nH]3)s1)C2=O`, the solubility was greater than 60 µg/mL (saturation solubility; 24 h, pH 5.0, 25 °C).
`COC1=C(OC)/C(=C/c2cc(Cc3ccc(OC(F)(F)F)cc3)c(C)[nH]2)N=C1c1ccc[nH]1.Cl` has a solubility of 6.6 µM (potassium phosphate buffer; 1.5 h, pH 7.4, room temperature, 100 mM buffer).
`CN(C)S(=O)(=O)NCC1CCOC2(CCN(C(=O)C3(c4cccc(C(F)(F)F)c4)CCCC3)CC2)C1` (centres unmarked) has a solubility of 90 µM (pH 7.4).
For `CN1C(=O)Cc2ccc(F)c(CNCCCC3CN(c4ccc5c(n4)NC(=O)CO5)C(=O)O3)c21` (centres unmarked), the solubility was 133 µM (aqueous buffer).
With `COC1=CC(c2ccc[nH]2)=N/C1=C\c1[nH]c(C)cc1-c1ccccc1.Cl` the solubility was 90.1 µM (potassium phosphate buffer; 1.5 h, pH 7.4, room temperature, 100 mM buffer).
`O=C(Nc1ccc(OC(F)(F)F)cc1)NC1CCC(Oc2ccc(C(=O)[O-])cc2)CC1.[Na+]` (centres unmarked) has a solubility of 0.047 ± 0.003 µg/mL (simulated gastric fluid; pH 1.0, 37 °C, equilibrium).
The solubility of `O=C1Cc2cc(-c3ccco3)ccc2C(=O)N1O` is reported as 162 ± 5.33 µM (aqueous buffer; 2 (unit not given), pH 7.2).
`COc1ccc(-c2oc3cc(OC)cc(OC)c3c(=O)c2OC)cc1` gave a solubility of 6367 ± 18 ppm (HPLC; ethanol:butylene glycol 50:50).
`CC[C@@]1(O)C(=O)OCc2c1cc1n(c2=O)Cc2cc3cc4c(cc3nc2-1)OCO4` gave a solubility of less than 1 µg/mL.
With `CCOC(=O)N1C[C@@H](c2ccc(C)nc2)N[C@@H](C(C)C)C1` the solubility was greater than 750 µM (shake-flask, LC-HRMS; aqueous buffer; 16 h, pH 6.8).
With `CCc1cc(C)cc(CC)c1-c1c(OC(=O)C(C)(C)C)n2n(c1=O)CCOCC2` the solubility was 358 µM (PBS; 2 h, pH 7.4, 25 °C, 2% DMSO).
`COc1cc(Nc2ncc(F)c(Nc3ccc4c(n3)NC(=O)C(C)(C)O4)n2)cc(OC)c1OC` has a solubility of 8.8 µM (non-kinase assay buffer; 3 h, pH 7.5, 0.1% DMSO).
With `O=C(NCCCNc1nc(Nc2cccc(NC(=O)N3CCCC3)c2)ncc1I)c1cccs1` the solubility was 930 ± 50 µg/mL (Capryol 90; 24 h, 37 °C).
With `CC[C@H](C)[C@H](NC(=O)[C@H](CCC(=O)O)NC(=O)[C@H](CCCCN)NC(=O)[C@H](CC(C)C)NC(=O)[C@H](CC(=O)O)NC(=O)[C@@H](NC(=O)[C@H](Cc1ccc(O)cc1)NC(=O)[C@H](CO)NC(=O)[C@H](CCC(=O)O)NC(=O)[C@H](CCC(=O)O)NC(=O)[C@H](CC(C)C)NC(=O)[C@H](CCCCN)NC(=O)[C@H](CCCCN)NC(=O)[C@@H](NC(=O)[C@H](C)NC(=O)[C@H](CCC(=O)O)NC(=O)[C@H](CCC(=O)O)NC(=O)[C@H](CC(C)C)NC(=O)[C@H](CCCCN)NC(=O)[C@H](CCCCN)NC(=O)[C@H](CCSC)NC(=O)[C@H](CCC(=O)O)NC(=O)[C@H](Cc1ccc(O)cc1)NC(=O)[C@H](CCC(=O)O)NC(=O)[C@H](CC(C)C)NC(=O)[C@H](CC(=O)O)NC(=O)[C@H](CC(C)C)NC(=O)[C@H](Cc1ccccc1)NC(=O)[C@@H](NC(=O)[C@@H](NC(=O)[C@H](CC(N)=O)NC(=O)[C@@H](NC(=O)[C@H](CCC(N)=O)NC(=O)[C@H](CC(=O)O)NC(=O)[C@H](CC(C)C)NC(=O)[C@@H](N)CO)[C@@H](C)CC)C(C)C)[C@@H](C)O)[C@@H](C)CC)[C@@H](C)CC)C(=O)O` the solubility was 1080 ± 83 µM (PBS; pH 7.2).
For `COC1=CC(c2ccc[nH]2)=N/C1=C\c1cc(Cc2ccc(C#N)cc2)c(C)[nH]1.Cl`, the solubility was 50.4 µM (potassium phosphate buffer; 1.5 h, pH 7.4, room temperature, 100 mM buffer).

Excerpt of the above:
`COc1ccc(-c2oc3cc(OC)cc(OC)c3c(=O)c2OC)cc1` gave a solubility of 6367 ± 18 ppm (HPLC; ethanol:butylene glycol 50:50).
`CC[C@@]1(O)C(=O)OCc2c1cc1n(c2=O)Cc2cc3cc4c(cc3nc2-1)OCO4` gave a solubility of less than 1 µg/mL.
With `CCOC(=O)N1C[C@@H](c2ccc(C)nc2)N[C@@H](C(C)C)C1` the solubility was greater than 750 µM (shake-flask, LC-HRMS; aqueous buffer; 16 h, pH 6.8).
